Measurements gathered from unrelated publications.
Numbered parts are unrelated; each lists some results of a single study. Substitutions count along the parent as printed.

Set 1
Target: Sal-like protein 4, full length isoform A (SALL4, Homo sapiens, UniProt Q9UJQ4, residues 1-1053)
Sequence of UniProt Q9UJQ4 (whole entry, looked up): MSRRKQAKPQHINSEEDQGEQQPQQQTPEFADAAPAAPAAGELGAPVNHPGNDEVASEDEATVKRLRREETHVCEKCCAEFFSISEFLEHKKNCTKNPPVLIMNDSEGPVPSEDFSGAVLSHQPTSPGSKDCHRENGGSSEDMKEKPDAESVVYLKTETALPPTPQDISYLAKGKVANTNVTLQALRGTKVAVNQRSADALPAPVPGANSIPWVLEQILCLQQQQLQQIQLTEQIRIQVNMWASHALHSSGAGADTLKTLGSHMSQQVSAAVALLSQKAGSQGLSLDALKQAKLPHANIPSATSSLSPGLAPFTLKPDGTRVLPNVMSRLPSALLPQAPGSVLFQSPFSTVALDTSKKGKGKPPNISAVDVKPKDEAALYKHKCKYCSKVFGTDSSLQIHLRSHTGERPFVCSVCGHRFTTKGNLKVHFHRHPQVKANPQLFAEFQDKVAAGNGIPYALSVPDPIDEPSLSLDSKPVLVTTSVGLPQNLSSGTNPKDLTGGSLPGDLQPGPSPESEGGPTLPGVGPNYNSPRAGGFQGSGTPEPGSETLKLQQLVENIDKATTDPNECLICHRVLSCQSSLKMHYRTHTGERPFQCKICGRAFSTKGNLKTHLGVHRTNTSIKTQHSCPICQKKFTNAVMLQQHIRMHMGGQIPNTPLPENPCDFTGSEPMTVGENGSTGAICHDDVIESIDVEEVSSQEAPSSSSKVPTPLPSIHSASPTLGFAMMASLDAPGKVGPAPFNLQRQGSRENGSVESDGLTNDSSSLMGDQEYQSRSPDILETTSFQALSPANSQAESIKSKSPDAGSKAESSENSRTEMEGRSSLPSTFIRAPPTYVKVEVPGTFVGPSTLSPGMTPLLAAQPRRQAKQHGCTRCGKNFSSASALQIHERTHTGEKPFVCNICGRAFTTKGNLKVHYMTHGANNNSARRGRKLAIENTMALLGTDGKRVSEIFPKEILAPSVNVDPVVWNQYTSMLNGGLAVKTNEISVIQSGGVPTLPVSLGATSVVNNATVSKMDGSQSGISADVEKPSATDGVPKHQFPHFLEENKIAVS
Method: universal PBM
Form: double-stranded DNA, one strand shown
Sample: in vitro
Concentration: 600 nM
Notes: 8-mer, flanks averaged, mean of replicates
Reading: higher = stronger binding
Measurement: E-score
AACTGCAA: -0.0152
CGAAGTTC: -0.0216
GAATCTAC: 0.0605
GTCGTACA: -0.00206
CCAGCGAG: -0.259
AATTTATC: 0.356
TTTGCAAA: 0.204
AGCCCTTA: -0.0412
ACCATGTA: 0.143
GACCCAGC: -0.324
CTGTAGAC: -0.0351
CAGCCACG: -0.171
GCGCGCAC: -0.2
TCCTTAAA: 0.185
CCAATGGC: -0.184
CGACATCG: -0.139
GGCCTACA: -0.122
CGTAATGA: 0.0933
CACGATCA: 0.0878

Set 2
Target: RNA binding protein fox-1 homolog 2, RRM domain, GST-SBP tag (RBFOX2, Homo sapiens, UniProt O43251-10, residues 100-194)
Method: RNA Bind-n-Seq
Form: RNA
Sample: in vitro
Concentration: 365 nM
Notes: natural RNA segment, single round, ends assumed
Relative to: no-protein control
Reading: higher = stronger binding
Measurement: RBNS enrichment (R)
Residues (chain): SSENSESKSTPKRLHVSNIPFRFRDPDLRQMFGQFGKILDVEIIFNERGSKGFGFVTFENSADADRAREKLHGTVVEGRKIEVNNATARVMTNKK
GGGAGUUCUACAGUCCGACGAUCGGGAAAUCAGGUCUUUAUUGAUAAAGUUAGGGAGAAGAUUGAUGCAAUAGGACAAUUUCCAAUUUAAUUUAGAUCCUCUAAUCUUUCUACAUGGACAAGCUGUUUUCUUUUGGAAUUCUCGGGUGCCAA: 0.516
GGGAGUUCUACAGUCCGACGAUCGUUGCAUGGGUGUGUGUCGCUGUGCAGGCCUGCCUGGGCUACCAUCUCCACUCCCCAUGUCUCUGAGGUUCACUCCAGCCACCAUUUCUUUAGGCAGCUCUGCCUUAACCUGGAAUUCUCGGGUGCCAA: 0.902
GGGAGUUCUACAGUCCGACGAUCUCUUCAUGUUUCUUCUUUGUAUAUUUGGUGACUGUAUUGUCAUAGAUGUACAUAUCGUGUCGGUAGGGCUAUGAGGCAUGUUACAGGAAUGUAAUUUUCUCAGAAUUUACUGGAAUUCUCGGGUGCCAA: 0.303
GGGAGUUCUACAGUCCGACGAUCUGCUCAGCCCUUCCUAGAAGAGUCAGGAAGGGAAAGCCAGAAGGGGCACGCCUGCCCAGCCUCGCAUGCCAGAGCCUGGGGCAUCCCAGAGCCCAGGGCAUCCCAUGGGGUGGAAUUCUCGGGUGCCAA: 3.48
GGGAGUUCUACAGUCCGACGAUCCACGUCCAAGGCUGCUUACCCCAGCAACCUCCCAUCCCCUGAGCCCUCAAUAAAUGCCAUCUGUAGCAGCUGUUUGUCUGAGCGCCCUGUACUAGGGGGCCGGUGGGCUGUGGAAUUCUCGGGUGCCAA: 0.628
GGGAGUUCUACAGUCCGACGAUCGUCUUCUGGUAAAUGUGUGCAGGGUCAUCCUGUCUCCUGUACCUCCUGGGAAAGGGGCCGCUGCUGUCUGGUGCCCUGUGAGCUGUGAUUGAUUGCCUUUGGUCAGUAAUUGGAAUUCUCGGGUGCCAA: 0.587
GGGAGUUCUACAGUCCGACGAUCGCUCUGUGAGAAGGCGUGCCAGCCAUUAGGAAGCCCCACCGCCAAAGGAGGUGCACCCAGGAGGGUCCUCAGAAUCAUGGACUUCUACCCCAUUGCUGGUAGACAAUUUUUGGAAUUCUCGGGUGCCAA: 0.391
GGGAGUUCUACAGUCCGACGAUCCCAGUUAGAGCCCCUGGAAGUCCUCUUUCAGUUAGUGGCAAGCCACAUAUCCUGGAUCACAAAGCAAAGAAGAUGAACAGGUCCAGACACUGAGGCAAAUGGUACCUCAUUGGAAUUCUCGGGUGCCAA: 0.433
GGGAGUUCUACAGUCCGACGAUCCUAAGCAAAACCAGGUUUAGAGGCACUACCAGUACACACAGUACCUGCACACGUACAGGUCAACAGCCUUCUCCCUCCUAAGAUGGACUUAAUUCAGACAGCCACUGCUUUGGAAUUCUCGGGUGCCAA: 0.364
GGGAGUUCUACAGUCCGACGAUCGGUGGCUGGUGCCUCUCCCUAGGAAAGCUUUGGCGUCAUUCAACUCAAGUGUUCUUGUUCUUGUUGCCAAAGAGAAAAGGAUUUUCCUCCACUGUGGAUUCUCCCUCUCCUGGAAUUCUCGGGUGCCAA: 0.497
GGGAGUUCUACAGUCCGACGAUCGCCUGGGACAUCGCUGGAACCUGCACCAUGCCAGGAUCAUGGGACCAGGCGAGAGGGCACCCUCCCUUCCUCCCCCAUGUGAUAAAUGGGUCCAGGGCUGAUCAAAGAACUGGAAUUCUCGGGUGCCAA: 0.324
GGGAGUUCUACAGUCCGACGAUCCAGUAUACACAGGACAUUGUUGCUGCCGCCACCGAGACUGGUUUUCUGUCCCUGAGAACAUGACGUUUGUGACGUCCUACCCAUUGGGAGUCCUUCACACCCCAGCCAUCUGGAAUUCUCGGGUGCCAA: 0.318

Set 3
Cell line: yeast with cyclin A1-Cln2 chimera
Read-out: cell growth
Mode: binder
Method: competitive growth deep sequencing
Form: peptide
Concentration: concentration not given
Notes: peptide tiling library
Reading: direction not given
Measurement: growth enrichment score
KDDDKAWEYEERDRRS: -0.302
AEHPKPSACRNLFGPV: 0.123
VLVRTSACRSLFGPVD: -1.33
TSPGPVLLHPSPSTTQ: 0.245
NFETPEAETPIRSPFK: -0.202
RNRGPKLNAMLRLGVL: -0.546
QNPCGSKACRRLFGPV: -0.967
NNIRKALSFDNRGEEH: -0.998
GAEELEDLVHFSVSEL: 1.16
VRDLSYRLVFLACCVA: -0.651
VLPGGVPSPGASLTSM: 0.669
PQWPCGKHKRVLIFAS: -0.202
LENIEPLQVSFAVLSS: 0.368
SGYLTDENEVGFRG: -0.21
FQDSGYNELKSCSFDN: 0.933

Set 4
Target: Histone acetyltransferase KAT6A, winged helix 1, GST fusion (KAT6A, Homo sapiens, UniProt Q92794, residues 1-85)
Method: protein binding microarray
Form: double-stranded DNA, one strand shown
Sample: in vitro
Concentration: not given
Notes: 8-mer, flanks averaged, mean of 2 arrays, mostly near background
Relative to: not given
Reading: higher = stronger binding
Measurement: E-score
Target sequence (chain): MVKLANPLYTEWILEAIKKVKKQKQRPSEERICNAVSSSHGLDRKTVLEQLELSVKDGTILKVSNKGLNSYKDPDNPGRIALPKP
ATAATGGC: 0.0702
GTACATTA: 0.0742
CTTTAAAC: -0.15
ACCGTAGA: 0.17
AACCGGAG: 0.137
CCCGACCG: 0.349
ATGCCGCG: 0.428
GGTTAAAA: 0.00566
CAGCTAAC: -0.194
CAATCCAG: -0.187
AATATGTA: -0.133
CATTCTGC: 0.00635
CTGCGCAC: 0.219
CGGGTGTA: 0.175
TTCTAAAA: -0.0851
AAACCAAT: -0.143
GCAGCAAC: -0.02
ATTGATCG: 0.0167
CCTCCGAA: -0.171
ACTCTTCT: -0.157
AACATTAC: 0.00647
ATACTTGG: -0.247
ACATTACC: 0.143
ACTATGAT: -0.094
CAATGGAA: 0.00632

Set 5
Target: MAFG, bZIP domain (human)
Method: DHFR protein complementation
Sample: yeast
Notes: single substitutions, most at no-binding floor
Relative to: wild-type JUN-FOS pair
Reading: higher = stronger binding
Measurement: binding fitness
Parent: JUN, bZIP domain (human); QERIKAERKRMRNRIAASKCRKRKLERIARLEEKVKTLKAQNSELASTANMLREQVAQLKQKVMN; partner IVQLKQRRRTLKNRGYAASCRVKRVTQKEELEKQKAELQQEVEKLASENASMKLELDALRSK
N42C: -1.27 natural log
Q41R: -1.48 natural log
N42F: -1.44 natural log
A46F: -1.35 natural log
E33H: -1.41 natural log
A57E: -1.43 natural log
N42T: -1.46 natural log
E54L: -1.41 natural log
V56W: -1.54 natural log
I28Y: -1.53 natural log
A29H: -1.4 natural log
A40R: -1.3 natural log
E32V: -1.33 natural log
A57T: -1.39 natural log
N42V: -1.14 natural log
E32M: -1.54 natural log
E44P: -1.55 natural log
L52E: -1.47 natural log
E32A: -1.51 natural log

Set 6
Target: CEP164, C-terminal peptide (human)
Method: DHFR complementation, deep sequencing
Sample: yeast
Notes: single substitutions, model-inferred values
Relative to: wild type
Reading: higher = weaker binding
Measurement: binding free energy change
Parent: PDZK1, PDZ domain 2 (human); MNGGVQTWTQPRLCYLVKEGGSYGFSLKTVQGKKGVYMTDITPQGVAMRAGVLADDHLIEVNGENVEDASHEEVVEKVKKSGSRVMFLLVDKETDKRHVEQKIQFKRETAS; partner HNRVKVYRF
A50S: 0.209 kcal/mol
L16W: 1.15 kcal/mol
W8Q: -0.167 kcal/mol
G4S: 0.00911 kcal/mol
P11N: 0.315 kcal/mol
V85N: 1.44 kcal/mol
T109A: -0.195 kcal/mol
V99W: -0.135 kcal/mol
V36D: 1.45 kcal/mol
Q6H: -0.0549 kcal/mol
L13G: 0.284 kcal/mol
E67W: 0.154 kcal/mol
K18R: -0.192 kcal/mol
P43N: 0.178 kcal/mol
Q101T: -0.0413 kcal/mol
T9D: 0.00628 kcal/mol
V36L: 0.155 kcal/mol
F25R: 1.28 kcal/mol
E73Q: 0.0978 kcal/mol
Q6V: -0.0341 kcal/mol
D56H: 0.579 kcal/mol

Set 7
Target: ABI1, truncated, D143A, DHFR fusion (Arabidopsis thaliana)
Method: DHFR PCA, deep sequencing
Sample: yeast
Notes: methotrexate growth selection, single substitutions
With: (+)-ABA 710 µM
Relative to: wild-type fitted maximum
Reading: higher = stronger binding
Measurement: relative binding score
Parent: PYL1, truncated, DHFR fusion (Arabidopsis thaliana); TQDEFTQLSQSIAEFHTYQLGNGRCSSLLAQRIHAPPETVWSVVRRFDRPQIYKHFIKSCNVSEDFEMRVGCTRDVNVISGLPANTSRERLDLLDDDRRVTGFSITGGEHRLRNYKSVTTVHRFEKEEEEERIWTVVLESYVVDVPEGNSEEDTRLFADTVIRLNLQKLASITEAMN; partner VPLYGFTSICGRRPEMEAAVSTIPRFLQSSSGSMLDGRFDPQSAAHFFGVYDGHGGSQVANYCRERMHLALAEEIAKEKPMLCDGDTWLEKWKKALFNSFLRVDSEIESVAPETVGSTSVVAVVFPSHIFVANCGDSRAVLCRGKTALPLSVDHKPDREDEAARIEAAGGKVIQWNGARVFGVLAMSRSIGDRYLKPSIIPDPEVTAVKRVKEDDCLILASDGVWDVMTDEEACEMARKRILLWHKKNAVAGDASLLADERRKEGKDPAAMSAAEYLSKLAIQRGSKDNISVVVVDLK
H55V: 103%
V145Q: 78.7%
V136D: 77%
E151K: 103%
D96F: 64.1%
V44D: -7.43%
N149K: 61.3%
S9C: 84.9%
L94N: 63.4%
L93W: 92.4%
L164V: 101%
S42C: 98.4%
Q7D: 108%
A175S: 101%
R113N: 97.4%
S117T: 56.5%
L91F: 37.6%
W134E: 106%
S80P: 61.5%

Single results of other studies
PhoQ, residues 284 288 289 292 302 303 TLASMF — fold induction (PhoP, residues 12 14 15 18 19 SMASL (Escherichia coli, UniProt P23836); Sort-seq, item: YFP reporter; E. coli; PhoQ-PhoP variant library, with: 10 µM Mg2+; relative to: high Mg2+ state, higher = stronger signaling): 5.19

Excerpt of the above (set 7):
A175S: 101%
S117T: 56.5%
H55V: 103%
L94N: 63.4%
E151K: 103%
Q7D: 108%
V145Q: 78.7%
V44D: -7.43%
L91F: 37.6%
L164V: 101%
S9C: 84.9%
L93W: 92.4%
S42C: 98.4%
D96F: 64.1%
S80P: 61.5%
N149K: 61.3%
V136D: 77%
R113N: 97.4%
